Measurements gathered from unrelated publications.
A part holds a random share of what one study measured.

Set 1
Target: Histone acetyltransferase KAT6A, both winged helices, GST fusion (KAT6A, Homo sapiens, UniProt Q92794, residues 1-181)
Method: protein binding microarray
Molecule type: double-stranded DNA, one strand shown
Sample: in vitro
Concentration: not given
Notes: 8-mer, flanks averaged, mean of 2 arrays, mostly near background
Baseline: not given
Direction: higher = stronger binding
Residues (chain): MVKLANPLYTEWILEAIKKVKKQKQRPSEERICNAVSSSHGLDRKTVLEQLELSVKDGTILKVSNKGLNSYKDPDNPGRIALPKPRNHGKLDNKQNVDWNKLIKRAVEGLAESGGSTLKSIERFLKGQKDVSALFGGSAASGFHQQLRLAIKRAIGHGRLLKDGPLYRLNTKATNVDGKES
`CGTTTGTC` has an E-score of 0.116.
`CATCGCTC` gave an E-score of 0.109.
For `AGACAATA`, the E-score was -0.0225.
The E-score of `AGGATGAT` is reported as -0.146.
`ATGTCGCC` gave an E-score of 0.0604.
With `CTTTCTAC` the E-score was -0.101.
`AGTCAACG` has an E-score of -0.0616.
With `ACTGTACT` the E-score was -0.22.
With `CGTGAACA` the E-score was 0.18.
`AGAAGGCC` gave an E-score of 0.0348.
`AAGCGCGC` gave an E-score of 0.397.
`AGGTTTAT` has an E-score of 0.0732.
The E-score of `TAGTTAAA` is reported as 0.0752.
With `ACCTTTGA` the E-score was -0.0562.
`ATCTGGTG` gave an E-score of -0.118.
`GAACGGCC` gave an E-score of 0.181.
The E-score of `ATCATGAC` is reported as -0.165.
For `AGGCGCGA`, the E-score was 0.269.
`TTCTTCAA` gave an E-score of -0.145.
The E-score of `AGTGCAGG` is reported as -0.141.
The E-score of `ATGAGAAT` is reported as -0.0649.
The E-score of `CAGCGGGG` is reported as 0.173.
`CACAGATG` gave an E-score of -0.192.
With `AACGTGGC` the E-score was -0.0467.

Set 2
Target: Fragile X messenger ribonucleoprotein 1, C-terminal low-complexity region (Fmr1, Mus musculus, UniProt P35922)
Method: RNA Bind-n-Seq
Molecule type: RNA
Sample: in vitro
Concentration: 200 nM
Notes: whole 134-nt RNA, ends assumed
Added: 150 mM LiCl
Baseline: input library
Direction: higher = stronger binding
Library: 7-deaza-guanosine replaces G
The log2 enrichment of `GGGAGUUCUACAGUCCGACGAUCCAAGUCCUGUGCUACACAUCGUAUGUACCGAAUCGGAAAGGUUUUUUUGGAAAGGAAAGUAUUAUGUUACGCCGUUCGGAUCUGCACUUCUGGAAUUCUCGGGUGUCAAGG` is reported as -1.97.
For `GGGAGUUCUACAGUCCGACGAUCGUCCUGUGCUACACAUCGUAUGUACCGAAUCGGGGAAAAAGGGGUGGGGUUUUUGGGGAAAGUAUUAUGUUACGCCGUUCGGAUCUGCACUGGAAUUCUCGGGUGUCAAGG`, the log2 enrichment was -0.155.
With `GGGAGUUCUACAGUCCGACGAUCGCAGGAAGUAAAAACAAAUGGAAAUGCUUCGGAUAGUGGCAGGGGUGGGGGUUGCUAAGGAAAGGGUGGGAUGGGAUUGGGUAAAGAGUUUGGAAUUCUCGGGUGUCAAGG` the log2 enrichment was 1.26.
`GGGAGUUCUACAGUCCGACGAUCCUCAAGUCCUGUGCUACACAUCGUAUGUACCGAAUCGGUUGGUUGGGUUGGGGAAAGUAUUAUGUUACGCCGUUCGGAUCUGCACUUCCAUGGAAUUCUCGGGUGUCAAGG` gave a log2 enrichment of -0.987.
The log2 enrichment of `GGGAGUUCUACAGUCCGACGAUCAAGUCCUGUGCUACACAUCGUAUGUACCGAAUCGGUUUGGUUUUUUUGGUUUUUGGAAAGUAUUAUGUUACGCCGUUCGGAUCUGCACUUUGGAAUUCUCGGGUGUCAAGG` is reported as -1.64.
For `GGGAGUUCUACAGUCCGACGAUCUCAAGUCCUGUGCUACACAUCGUAUGUACCGAAUCGUGUGUGUGUGUGUGUGUGAAAGUAUUAUGUUACGCCGUUCGGAUCUGCACUUCCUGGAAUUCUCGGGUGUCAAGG`, the log2 enrichment was -0.827.
`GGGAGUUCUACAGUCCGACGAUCAAGUCCUGUGCUACACAUCGUAUGUACCGAAUCGGAAAAAAAGGUGGAAAAAAAGGAAAGUAUUAUGUUACGCCGUUCGGAUCUGCACUUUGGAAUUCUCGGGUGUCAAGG` has a log2 enrichment of -2.18.
The log2 enrichment of `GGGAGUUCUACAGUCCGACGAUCUCCUGUGCUACACAUCGUAUGUACCGAAUCGGGUUUUUUUGGGUUUUUGGGAAAAAGGGAAAGUAUUAUGUUACGCCGUUCGGAUCUGCAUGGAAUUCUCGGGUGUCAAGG` is reported as -0.618.
`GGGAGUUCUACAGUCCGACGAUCAAGUCCUGUGCUACACAUCGUAUGUACCGAAUCGGAAAAAAAGGUUUUUGGUUUGGAAAGUAUUAUGUUACGCCGUUCGGAUCUGCACUUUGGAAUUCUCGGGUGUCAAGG` gave a log2 enrichment of -3.64.
`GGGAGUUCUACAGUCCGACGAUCAAGUCCUGUGCUACACAUCGUAUGUACCGAAUCGGGUUUUUUUGGGAAAGGGAGGGAAAGUAUUAUGUUACGCCGUUCGGAUCUGCACUUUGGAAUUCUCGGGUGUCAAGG` gave a log2 enrichment of -0.743.
The log2 enrichment of `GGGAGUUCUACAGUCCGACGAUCUAACUUUAGAGGAGGAUCUGAUGGAUAUGGCAGUGGACGUGGAUUUGGGGAUGGCUAUAAUGGGUAUGGAGGAGGAGCUGGAGGUGGCAAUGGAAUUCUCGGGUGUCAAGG` is reported as 1.26.

Set 3
Target: Sal-like protein 4, full length isoform B (SALL4, Homo sapiens, UniProt Q9UJQ4-2, residues 1-616)
Method: universal PBM
Molecule type: double-stranded DNA, one strand shown
Sample: in vitro
Concentration: not given
Notes: 8-mer, flanks averaged, mean of replicates
Direction: higher = stronger binding
Target sequence (chain): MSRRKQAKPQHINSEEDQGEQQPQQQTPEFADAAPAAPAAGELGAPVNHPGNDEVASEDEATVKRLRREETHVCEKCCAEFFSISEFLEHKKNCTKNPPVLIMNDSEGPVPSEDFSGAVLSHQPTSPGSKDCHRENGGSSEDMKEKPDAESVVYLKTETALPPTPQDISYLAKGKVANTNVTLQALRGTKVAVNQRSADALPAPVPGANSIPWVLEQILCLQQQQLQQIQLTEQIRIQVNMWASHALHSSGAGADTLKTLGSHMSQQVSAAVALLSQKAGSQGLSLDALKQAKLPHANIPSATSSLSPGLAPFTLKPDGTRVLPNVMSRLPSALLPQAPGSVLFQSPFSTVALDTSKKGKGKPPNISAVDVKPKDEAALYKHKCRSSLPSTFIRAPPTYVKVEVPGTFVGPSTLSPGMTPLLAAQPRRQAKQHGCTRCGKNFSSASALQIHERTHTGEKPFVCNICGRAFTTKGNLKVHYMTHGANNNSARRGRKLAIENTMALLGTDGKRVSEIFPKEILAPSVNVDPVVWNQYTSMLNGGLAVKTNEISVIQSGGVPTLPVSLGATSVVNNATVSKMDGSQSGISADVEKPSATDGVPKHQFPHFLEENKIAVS
`CAGCACGC` has an E-score of -0.159.
`GGATCTGA` has an E-score of -0.118.
`AAGTGAAG` has an E-score of 0.145.
With `AAGTCGAG` the E-score was -0.132.
With `ATTTGGAA` the E-score was 0.226.
The E-score of `ATTCGCAC` is reported as -0.149.
With `ATCCGAGC` the E-score was -0.0741.
For `ATGTAGTG`, the E-score was 0.135.
`AGCCGTTA` gave an E-score of 0.0449.
`GCATTAGC` has an E-score of -0.0543.
The E-score of `GAACGTAA` is reported as 0.111.
`CGCATCTC` gave an E-score of -0.0234.
For `ATGAACAA`, the E-score was 0.294.
`GTCACACA` gave an E-score of -0.0112.
`GCATGAAA` has an E-score of 0.155.
For `CTACGTGC`, the E-score was -0.0493.
For `ATTCAGTA`, the E-score was 0.264.
The E-score of `AGTCCTGA` is reported as -0.126.
`GGCCCCAA` has an E-score of -0.188.
With `CACAGCCA` the E-score was -0.237.
`AGTACGGA` gave an E-score of -0.0153.
`AGGATAAT` gave an E-score of 0.215.
With `ACTAAAGC` the E-score was 0.0775.
The E-score of `CCCTTGTA` is reported as 0.0876.
`CCAAATTC` has an E-score of 0.0192.

Set 4
Target: Interferon regulatory factor 3, full length, phosphomimetic (IRF3, Homo sapiens, UniProt Q14653, residues 1-427, S386D/S396D/S398D/S402D/T404D/S405D)
Method: protein-binding microarray
Molecule type: double-stranded DNA, one strand shown
Sample: in vitro
Concentration: 2540 nM top
Notes: 60-bp whole probe
Added: salmon DNA 0.4 mg/ml
Baseline: random background probes
Direction: higher = stronger binding
Shared flanks, not repeated: GCCTAGCAC … GTCTTGATTCGCTTGACGCTGCTG
Target sequence (chain): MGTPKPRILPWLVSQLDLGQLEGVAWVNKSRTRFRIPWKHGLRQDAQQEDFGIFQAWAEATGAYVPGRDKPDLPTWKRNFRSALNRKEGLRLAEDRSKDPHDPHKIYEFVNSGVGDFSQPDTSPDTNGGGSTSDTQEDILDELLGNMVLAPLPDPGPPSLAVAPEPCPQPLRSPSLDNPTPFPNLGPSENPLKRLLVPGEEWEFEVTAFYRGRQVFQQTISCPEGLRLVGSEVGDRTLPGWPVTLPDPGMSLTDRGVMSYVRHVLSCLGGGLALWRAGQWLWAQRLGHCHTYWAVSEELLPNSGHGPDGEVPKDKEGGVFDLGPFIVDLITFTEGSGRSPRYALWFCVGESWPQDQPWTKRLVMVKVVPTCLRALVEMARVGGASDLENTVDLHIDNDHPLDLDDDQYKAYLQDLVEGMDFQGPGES
For `GACAATTTCGGGTATCGAGACGTGCTA`, “fitted relative affinity” read 1.46 z-score.
`CACGGACTGGACTATCGGGACGTGCTA` — result for “fitted relative affinity”: -0.444 z-score.
`GACGAACTTGGGTTTCGAGACGTGCTA` — result for “fitted relative affinity”: 0.669 z-score.
`ATGTGTTTAAGAATGTTTTTGTGCTAG` — result for “fitted relative affinity”: -0.0716 z-score.
Under “fitted relative affinity”, `TTAGGTTTCCTACTGGTTTAGTGCTAG` is recorded as 4.58 z-score.
`GATGATATCAGTTTCGAGACGTGCTAG` — result for “fitted relative affinity”: 3.67 z-score.
For `TTAGGTTTCGGTATCTGTTAGTGCTAG`, “fitted relative affinity” read 8.08 z-score.
Under “fitted relative affinity”, `GACGGTATCCTACAGCTGACGTGCTAG` is recorded as 1.1 z-score.
`GACTAACTGAGTATCGAGACGTGCTAG` — result for “fitted relative affinity”: 0.0596 z-score.
`TCATTTTTCCCTATTATACTGTGCTAG` — result for “fitted relative affinity”: 3.17 z-score.
For `GACGATTTCAGCTCCGAGACGTGCTAG`, “fitted relative affinity” read 0.625 z-score.
`TTAGATATCGGGTTTCGGTTAGTGCTA`: “fitted relative affinity” 3 z-score.
For `GACGGTTTGGGACTGGGGACGTGCTAG`, “fitted relative affinity” read -0.111 z-score.
`GACGGTATAGGTCTCGGGACGTGCTAG`: “fitted relative affinity” -0.347 z-score.
`TTAGGTATCGGTCTGGGTTAGTGCTAG`: “fitted relative affinity” 2.32 z-score.
For `GACGGACTGGGTCTCCGGACGTGCTAG`, “fitted relative affinity” read -0.541 z-score.
`TCAGATTGGTTGAACATACTGTGCTAG` — result for “fitted relative affinity”: 0.183 z-score.
`TGTCTTTTCACTTTCTTTAAGTGCTAG` — result for “fitted relative affinity”: 2.94 z-score.
Under “fitted relative affinity”, `TCATTCCTGATCTCTGGTACTGTGCTA` is recorded as 1.27 z-score.
Under “fitted relative affinity”, `GACTGTTTCGGGACTGGGGACGTGCTA` is recorded as 3.89 z-score.
For `CTAGGTTTCCTTTCCCTTTAGTGCTAG`, “fitted relative affinity” read 10.3 z-score.
`TACTTTCTACGTCTGATTTTGTGCTAG`: “fitted relative affinity” 1.46 z-score.
`TTAGGTTTCGGTTGCGGTTAGTGCTAG`: “fitted relative affinity” 6.3 z-score.
Under “fitted relative affinity”, `GACGGTTTCGGACTTGGGACGTGCTAG` is recorded as 5.94 z-score.

For quick reference, copied from above (set 3):
`CAGCACGC` has an E-score of -0.159.
`GGATCTGA` has an E-score of -0.118.
`AAGTGAAG` has an E-score of 0.145.
With `AAGTCGAG` the E-score was -0.132.
With `ATTTGGAA` the E-score was 0.226.
The E-score of `ATTCGCAC` is reported as -0.149.
With `ATCCGAGC` the E-score was -0.0741.
For `ATGTAGTG`, the E-score was 0.135.
`AGCCGTTA` gave an E-score of 0.0449.
`GCATTAGC` has an E-score of -0.0543.
The E-score of `GAACGTAA` is reported as 0.111.
